Measurements of several laboratories.
Parts stem from different laboratories: compare values within a part only. “And” joins repeats or separate records; there may be more than shown.

Study 1
Cell line: Gaucher fibroblasts L444P/L444P
Technique: 4-MUG hydrolysis, cell lysate
Concentration: 1 µM
Relative to: DMSO
Endpoint: GCase activity
Ic1ccc(Nc2nc(NCCN3CCOCC3)nc(N3CCSCC3)n2)cc1: 98% and 113% and 93.8% and 105%
Ic1ccc(Nc2nc(NCCN3CCOCC3)nc(N3CCCCC3)n2)cc1: 109% and 98.8% and 92.5% and 101% and 98.2% and 103%
COc1ccc(Nc2nc(NCCN3CCOCC3)nc(N3CCOCC3)n2)cc1: 97% and 99.9% and 95.2% and 93.2% and 95.6% and 103%
Ic1ccc(Nc2nc(NCCc3c[nH]c4ccccc34)nc(NCCN3CCOCC3)n2)cc1: 99.9% and 86.9% and 102% and 98.4% and 89.8%
Fc1ccc(Nc2nc(NCCN3CCOCC3)nc(N3CCOCC3)n2)cc1: 99.4% and 100% and 92.1% and 98.2% and 101% and 105%
Ic1ccc(Nc2nc(NCCN3CCOCC3)nc(N3CC4CCC(C3)O4)n2)cc1: 99.2% and 97.8% and 98.6% and 99.9% and 105%
CCOc1ccc2nc(Sc3nc(N4CCOCC4)nc(N4CCOCC4)n3)sc2c1: 95.4% and 99.3% and 90.6% and 86.6% and 110%
CCOc1ccc2nc(Sc3nc(Nc4ccc(OC)cc4)nc(N4CCOCC4)n3)sc2c1: 117% and 121% and 118%

Study 2
Compound: Cn1cc(-c2cccc(CN3CCC4(CC3)COc3c4ccc4c3CN([C@H]3CCC(=O)NC3=O)C4=O)c2)cn1
Endpoint: remaining compound
human plasma; 120 min, mean: 90.6%
rat plasma; 0 min: 100%
mouse plasma; 30 min, mean: 117%
rat plasma; 30 min, mean: 118%

Study 3
Sample: CES1-/- mouse GI tissue homogenate
Concentration: concentration not given
Time: 60 min
Endpoint: DON release
[2H]C([2H])([2H])OC(=O)[C@H](CCC(=O)C=[N+]=[N-])NC(=O)[C@H](Cc1c[nH]c2ccccc12)NC(C)=O: 19.1%
CC(=O)N[C@@H](Cc1c[nH]c2ccccc12)C(=O)N[C@@H](CCC(=O)C=[N+]=[N-])C(N)=O: 16%
COCCOCCOC(=O)[C@H](CCC(=O)C=[N+]=[N-])NC(=O)[C@H](Cc1c[nH]c2ccccc12)NC(=O)CN(C)C: 15.3%
CC(=O)N[C@@H](Cc1c[nH]c2ccccc12)C(=O)N[C@@H](CCC(=O)C=[N+]=[N-])C(=O)OC(CF)CF: 20%

Other studies, line by line
C#CCN1C(=O)C(O)(C(=O)O)Oc2cc(F)ccc21 (centres unmarked)
inhibition (Arabidopsis thaliana; root length; Col-0; 12.5 µg/mL, 7 days, seed germination, dark): 50.8%

For quick reference, copied from above (study 2):
mouse plasma; 30 min, mean: 117%
rat plasma; 30 min, mean: 118%
